Measured values from different studies.
Parts stem from different laboratories: compare values within a part only. Changes are numbered by the printed parent chain.

Sample 1 — method: RNA Bind-n-Seq; molecule type: RNA; medium: in vitro; concentration: 200 nM; setting: whole 134-nt RNA, ends assumed; added: 150 mM KCl; baseline: input library; direction: higher = stronger binding
Target: Ras GTPase-activating protein-binding protein 1, full length (G3BP1, Homo sapiens, UniProt Q13283)
UniProt Q13283, sequence (whole entry, looked up): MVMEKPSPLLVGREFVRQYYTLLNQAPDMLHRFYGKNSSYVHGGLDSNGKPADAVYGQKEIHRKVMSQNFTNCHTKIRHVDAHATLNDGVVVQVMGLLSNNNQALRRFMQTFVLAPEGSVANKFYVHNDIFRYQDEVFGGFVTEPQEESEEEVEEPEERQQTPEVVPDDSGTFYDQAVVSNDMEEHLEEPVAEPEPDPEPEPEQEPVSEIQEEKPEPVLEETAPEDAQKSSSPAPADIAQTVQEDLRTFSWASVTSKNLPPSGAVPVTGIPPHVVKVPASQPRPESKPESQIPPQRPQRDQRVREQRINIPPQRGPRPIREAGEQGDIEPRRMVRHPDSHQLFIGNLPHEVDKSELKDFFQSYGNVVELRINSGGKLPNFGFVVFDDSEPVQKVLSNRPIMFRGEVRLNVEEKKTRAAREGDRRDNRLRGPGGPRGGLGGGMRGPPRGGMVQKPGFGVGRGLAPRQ
Strand | log2 enrichment
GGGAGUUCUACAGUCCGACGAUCCACAGACAACACGCACCCACACAGACACAGAGGGAAGGGGUUGGGAUGGGGACAGGGUGCACAGCAGGGCGGGGUAGGACCCCAGACCCUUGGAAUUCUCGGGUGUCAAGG | 1.85
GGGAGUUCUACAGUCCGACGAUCCUCAAGUCCUGUGCUACACAUCGUAUGUACCGAAUCGGGAAAGGGUGGGAGGGAAAGUAUUAUGUUACGCCGUUCGGAUCUGCACUUCCAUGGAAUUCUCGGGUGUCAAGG | 1.28
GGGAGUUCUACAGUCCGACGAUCCAAGUCCUGUGCUACACAUCGUAUGUACCGAAUCGGGGCCCGGGGCCCGGGCCCGGAAAGUAUUAUGUUACGCCGUUCGGAUCUGCACUUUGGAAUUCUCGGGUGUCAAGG | -0.828
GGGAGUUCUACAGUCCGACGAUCUCCUGUGCUACACAUCGUAUGUACCGAAUCGGGAAAAAAAGGGUUUGGGAAAAAAAGGGAAAGUAUUAUGUUACGCCGUUCGGAUCUGCAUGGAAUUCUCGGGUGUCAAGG | -0.569
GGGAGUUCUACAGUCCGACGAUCUCCCUGAAUCACCGACUGGAGGAGAGUUACCUACAAGAGCCUUCAUCCAGGAGCAUCCACACUGCAAUGAUAUAGGAAUGAGGUCUGAACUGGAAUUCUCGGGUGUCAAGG | 0.525
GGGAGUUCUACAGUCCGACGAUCCCUCAAGUCCUGUGCUACACAUCGUAUGUACCGAAUCGGAGGUGGUUUUUGGAAAGUAUUAUGUUACGCCGUUCGGAUCUGCACUUCCAGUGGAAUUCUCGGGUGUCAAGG | -0.189
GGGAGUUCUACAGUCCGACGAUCUCCUGUGCUACACAUCGUAUGUACCGAAUCGGGGAAAAAAGGAAAAAAGGGAAAAAAGGAAAGUAUUAUGUUACGCCGUUCGGAUCUGCAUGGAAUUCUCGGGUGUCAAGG | -0.401
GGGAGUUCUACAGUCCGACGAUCUGGGAGGUGGAUUUUGUUUAUUUUUUUAGCUCAUUUCCAGGGGUGGGAAUUUUUUUUUAAUAUGUGUCAUGAAUACAGUUGUUUUUGAAAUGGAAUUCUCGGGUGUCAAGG | 0.0472
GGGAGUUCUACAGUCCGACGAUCUUAGGGUCAUGUGAAGGUGGUGCGCUACUUAGUCAAAGAAGUCAAUCAGUUUCCAUCAGAUUCUGAAUGUAUGAGAUACAUAGCAACCAUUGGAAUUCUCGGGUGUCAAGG | -1.57
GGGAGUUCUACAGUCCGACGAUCCCUGUGCUACACAUCGUAUGUACCGAAUCGGCCCCCCGGGCCCCCCGGGGCCCCCCGGGGAAAGUAUUAUGUUACGCCGUUCGGAUCUGCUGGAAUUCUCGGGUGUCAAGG | -0.943

Sample 2 — method: RNA Bind-n-Seq; molecule type: RNA; medium: in vitro; concentration: not given; baseline: input RNA pool; direction: higher = stronger binding
Target: RING finger protein unkempt homolog, zinc fingers 1-6, GST-SBP tag (UNK, Homo sapiens, UniProt Q9C0B0, residues 30-357)
Setting: RNA with constant flanks, human-mouse chimeric sites, ends assumed
Construct (chain): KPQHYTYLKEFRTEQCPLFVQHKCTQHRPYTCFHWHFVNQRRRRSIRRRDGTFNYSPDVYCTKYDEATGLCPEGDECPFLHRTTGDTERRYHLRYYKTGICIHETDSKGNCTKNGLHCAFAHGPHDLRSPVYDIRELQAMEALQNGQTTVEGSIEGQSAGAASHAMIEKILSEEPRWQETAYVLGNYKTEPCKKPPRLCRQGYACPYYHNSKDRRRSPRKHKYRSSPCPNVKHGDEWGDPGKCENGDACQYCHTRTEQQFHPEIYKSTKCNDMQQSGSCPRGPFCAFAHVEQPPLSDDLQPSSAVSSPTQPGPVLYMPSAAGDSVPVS
Strand | bound/input enrichment [ratio]
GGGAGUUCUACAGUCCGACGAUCAUGGAGAAGGAUUCUCUGCCCCGCUUUGUGCGCUCUGAAUUUUAUAAGGAGUUAAUCAAGUAGUCAUCUGGUCAGGCUUCCAAAAGUUGCCCUGUGAGUUGAGUUACAUCCUUUGUAGCACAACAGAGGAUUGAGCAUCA | 0.192
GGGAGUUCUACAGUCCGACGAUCACUCAGAGAUCCACCUCCCAAAGUGCUGGGAGUAAAGUCUGAUAUUACACACCUAACUUGAUGGAUAUAUAUUUUUUUUAAUAUGAAUGAACUCUUGCGUCCAGGGAAGAAAGAUUUGUUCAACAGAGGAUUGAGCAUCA | 0.499
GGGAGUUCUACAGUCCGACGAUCUUACCCGAGAACGAGGAUGAGCUGGAGAGCACCAACAGGCGCUACACCAAGAGAGACUGCAGCACUUUCCUCAGAACUAGCGAGACGGGCAUCGUGGACCAGGUCAUGGUCACUCUCAACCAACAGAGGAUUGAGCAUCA | 0.162
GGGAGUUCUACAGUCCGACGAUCCUGUGUGUGCUGAAUAAAUGGCUUGUAAAGAAGUUUUCCAAGUUGUAAACCCAUGCUGUUAUUAUAGUUGCUGCAAAAUGUUCUUCCUAUUGAUGUUUUUAUUUGUUAACUGAAGGUCUCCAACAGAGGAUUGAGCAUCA | 0.336
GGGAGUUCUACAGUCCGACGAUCAAUUUCCUGUCAUACUUUUUAGACAUUCACAUCAGACUUACAGAGCACCUGGCCACAUUCUAGUUUUGUGUUAUUUCUCAGCUAUGGAUAUGAUCAAAGAGUGAAAAUGCUUAACUAAUGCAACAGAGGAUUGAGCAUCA | 0.461
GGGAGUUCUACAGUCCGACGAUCGCAAAGGAUGAUGAGGCGGCAGCUGUUGCCCUUUCCUCUCUCGUUCAUGCUUUGGAUGACUUAGACAUGGUCGCCAUAGUUCGAUAUGCUUAUGACAAAAGAUCUAAUCCUCAAGUUGGUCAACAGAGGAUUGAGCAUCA | 0.576
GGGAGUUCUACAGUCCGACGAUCGUAGCUGGGACUACAGAAAUGCUGGUAAUUUCAGUCACUUGCUGAUGACUUCUGAUGUCCCAGCAAAUGUUGGCAUUCACUGCAAUAGAGAAGAUACUUCUGAGGACAUACAGCAGUGGUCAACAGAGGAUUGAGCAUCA | 0.333
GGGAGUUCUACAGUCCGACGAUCGUAUACGGUUAUCGAGGAAAGGACUGUAGAGCGAAUGUAUACCUGCUUCCCACAGGGGAGAUAGUUUAUUUUAUCGCAUCAGUAGUAGUACUAUUUAAUUAUGAGGAGAGGACUCAGCGACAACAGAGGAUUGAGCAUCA | 22.4
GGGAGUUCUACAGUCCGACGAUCAGUGUGCAGGAAUUCAUGACCUUUACAAGUCAACUGAUUGUGGAACGCUCGGGGAAAGGCAGCAGAGCUUCUGUCAAAGAACAAGAGUAUCUGUGCCAUGUCUACGUCCGGAGCGACAGUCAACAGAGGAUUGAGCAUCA | 0.0928
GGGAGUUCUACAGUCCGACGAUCUUCCCAACCUCCCGCCUCACCCCACCCCCGCUUUUUGGAAAGUUUUUGGCUUUUUUUUUCCUUCCCCAUACAAAGUGAUUACAGUUUCCCCCGCAAGGGUCUAUCGAAGGGCUUGACGGACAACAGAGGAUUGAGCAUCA | 1.13
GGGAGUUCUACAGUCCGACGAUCGAGCCAAGUCGGCAGUUUGUAAAGGACUCAAUUCGGCUGGUUAAAAGAUGCACCAAACCCGACAGAAAAGAAUUCCAGAAGAUUGCCAUGGCUACAGCUAUAGGAUUUGCUAUCAUGGGACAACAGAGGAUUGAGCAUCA | 0.22

Sample 3 — target: CCNA1, cyclin fold, Cln2 fusion (human); method: yeast growth competition, sequencing; medium: yeast; setting: weak parent motif; baseline: not given; direction: higher = stronger binding
Parent: E2F2 docking peptide (human); LPAKRKLDLEGIG; partner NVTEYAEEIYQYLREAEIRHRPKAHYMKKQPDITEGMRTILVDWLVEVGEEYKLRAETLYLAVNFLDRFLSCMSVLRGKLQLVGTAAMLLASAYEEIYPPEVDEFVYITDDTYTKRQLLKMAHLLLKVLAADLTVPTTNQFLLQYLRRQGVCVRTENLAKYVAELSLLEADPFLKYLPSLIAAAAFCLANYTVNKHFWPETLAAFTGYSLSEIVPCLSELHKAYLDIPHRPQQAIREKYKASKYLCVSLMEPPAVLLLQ
Substitution | normalised enrichment score
R5A | 0.394
D8A | 0.0152
G11A | 0.0465
G13A | 0.722
L9A | 0.226
L9F | 1.62
K6A | 0.222

Sample 4 — method: RNA Bind-n-Seq; molecule type: RNA; medium: in vitro; concentration: 365 nM; baseline: no-protein control; direction: higher = stronger binding
Target: RNA binding protein fox-1 homolog 2, RRM domain, GST-SBP tag (RBFOX2, Homo sapiens, UniProt O43251-10, residues 100-194)
Setting: natural RNA segment, single round, ends assumed
Construct (chain): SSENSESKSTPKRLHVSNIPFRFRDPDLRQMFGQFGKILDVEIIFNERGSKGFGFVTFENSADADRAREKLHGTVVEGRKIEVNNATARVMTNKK
Strand | RBNS enrichment (R)
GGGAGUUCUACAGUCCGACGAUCUAUUCCUAUUCUUUGCCACCUUUUGGGUGUGGUGUCACCAGCCUGUUUAGCCAAGUAGCUUUGGGCAUAGGCUGCCCAAUCUGAGCAAACACCAGUGAGGCUCUAUUGAGUGGAAUUCUCGGGUGCCAA | 0.299
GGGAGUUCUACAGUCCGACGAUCAGAAGCUCUGAAGCCCAUGUAUGGCAUGGAUUGUGGAAGACUGGGCAACAUAUUUAAGAUUUCCAGCUCCUUGUGUAUAUGAAUGCAUUUGUAAGCAUCCCCCAAAUUAUUGGAAUUCUCGGGUGCCAA | 11.1
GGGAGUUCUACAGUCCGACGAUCCCUUCCAGAGAAAGGAUUCCUUCCCAGCCUCCAGGCUGGUGUCUCAUGAGGUGAGGAGGCUGGCCCAGAAGGAAGGGGACGUUAGGUGGUGAAGCAGGCUCCCCUGGGCCUGGAAUUCUCGGGUGCCAA | 0.293
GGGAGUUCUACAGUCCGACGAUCUGGUGACCUCCCCCACCAUCUUGUCUCACUUGGAAACCGUUGUCAGUUUAUUUACUAUGCAAUAGACAUUCAUUGUUUUGUAUCCAGCUAGCUUUGGUUUAAUAUGCCACUGGAAUUCUCGGGUGCCAA | 0.377
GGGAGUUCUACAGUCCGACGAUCUCCUCCCUCCCAAGGCCCCCAGGAAUCCCUUCCUCCCAUGUCCUGGCAGCAGGACCCCAGGCUACAUAUGGAAGGUAGAGAUGUGGGGGUCCUGUAUCCUGGAGUAUUAUUGGAAUUCUCGGGUGCCAA | 0.727
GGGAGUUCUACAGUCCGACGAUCUCCUAGGACCUUAAGAGAAUAGUAGGAGGUCCUAUAGCAUUCCCAGUGUCACUAGAAUUUUGAAGACAGGAAAGUGGAGGUUAGUCUGUGGCCUUUUUUUCAUUUAGCCAUGGAAUUCUCGGGUGCCAA | 0.605
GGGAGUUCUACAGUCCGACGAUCACUGGGUGUUGGGCAUGGGGGCCCAUGGAGUCAAAAGGAAUGGAGAGAAGGGCUUUGUAAAUAGCAUUUAAUGUUAAGAACAUCUGCAUUCUCUUUGUAGCUGAGUGCGUUGGAAUUCUCGGGUGCCAA | 1.62
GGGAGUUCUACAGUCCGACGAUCAUGCUAUAGCCUUCAUGUGGGUGCUACCUAGAGCAGGCGUGAACUGCUGGGUGGUGAUUGUGAGUUCAGACAAUAAAAAAAAUGUAUUUUUUUCAAUACUGUAUAAAAAUUGGAAUUCUCGGGUGCCAA | 0.568
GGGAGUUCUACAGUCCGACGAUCCAGUUUUCUCACAGGUCUGCAAUUCUGUUUUUCUCCAAGUACAUUAUGACCCCCUCAUCCUUCUCUUGAACUGGAGAGGGGAAGAAAUGAAAGGCAUGCCCACGUCCGUCUGGAAUUCUCGGGUGCCAA | 0.555
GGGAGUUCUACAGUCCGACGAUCUGGAGGCUGCAGUGACUUUUUUUGGCUCAAGAUCCACAAGCAUUAGAGUAGACUGGGCCAACAAGUCAACAAGUGGUGGCGUGUGCAAACGGGCUGCCCUAGUCAAGCCCUGGAAUUCUCGGGUGCCAA | 0.86
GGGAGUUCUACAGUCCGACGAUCCAGGCUGGCCUCGAACUCAGAAAUCGGCCUGCCUCUGCCUCCCGAGUGCUGGGAUUAAAGGCGUGCGCCACCACGUCUGGCUCCAUUUCUAAGUCUUGAACCAACUGACUUGGAAUUCUCGGGUGCCAA | 0.219
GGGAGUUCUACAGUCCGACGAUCCAGGAUGUAUAAUUUAUCUGUCUACUCAGAAUAUUAAUUUGUAAAUUCUGCAAGGUUAAUUUUAUGUAAUGGUAUAACUUUUGAAAUUAUUGUCUUAUGUUAUUUGUUUUUGGAAUUCUCGGGUGCCAA | 0.934

Repeated from above (sample 1):
Strand | log2 enrichment
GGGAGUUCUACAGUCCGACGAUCCUCAAGUCCUGUGCUACACAUCGUAUGUACCGAAUCGGGAAAGGGUGGGAGGGAAAGUAUUAUGUUACGCCGUUCGGAUCUGCACUUCCAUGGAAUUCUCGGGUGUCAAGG | 1.28
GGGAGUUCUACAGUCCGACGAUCCACAGACAACACGCACCCACACAGACACAGAGGGAAGGGGUUGGGAUGGGGACAGGGUGCACAGCAGGGCGGGGUAGGACCCCAGACCCUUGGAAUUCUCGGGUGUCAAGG | 1.85
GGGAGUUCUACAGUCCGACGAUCCCUCAAGUCCUGUGCUACACAUCGUAUGUACCGAAUCGGAGGUGGUUUUUGGAAAGUAUUAUGUUACGCCGUUCGGAUCUGCACUUCCAGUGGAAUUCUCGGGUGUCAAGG | -0.189
